Measured values collected from several papers.
Protocols differ between the studies behind these lines. “And” joins repeats or separate records; there may be more than shown. ± gives the spread as reported.
TRPV1: Transient receptor potential cation channel subfamily V member 1 (TRPV1, Homo sapiens, UniProt Q8NER1)
UniProt Q8NER1, sequence (whole entry, looked up): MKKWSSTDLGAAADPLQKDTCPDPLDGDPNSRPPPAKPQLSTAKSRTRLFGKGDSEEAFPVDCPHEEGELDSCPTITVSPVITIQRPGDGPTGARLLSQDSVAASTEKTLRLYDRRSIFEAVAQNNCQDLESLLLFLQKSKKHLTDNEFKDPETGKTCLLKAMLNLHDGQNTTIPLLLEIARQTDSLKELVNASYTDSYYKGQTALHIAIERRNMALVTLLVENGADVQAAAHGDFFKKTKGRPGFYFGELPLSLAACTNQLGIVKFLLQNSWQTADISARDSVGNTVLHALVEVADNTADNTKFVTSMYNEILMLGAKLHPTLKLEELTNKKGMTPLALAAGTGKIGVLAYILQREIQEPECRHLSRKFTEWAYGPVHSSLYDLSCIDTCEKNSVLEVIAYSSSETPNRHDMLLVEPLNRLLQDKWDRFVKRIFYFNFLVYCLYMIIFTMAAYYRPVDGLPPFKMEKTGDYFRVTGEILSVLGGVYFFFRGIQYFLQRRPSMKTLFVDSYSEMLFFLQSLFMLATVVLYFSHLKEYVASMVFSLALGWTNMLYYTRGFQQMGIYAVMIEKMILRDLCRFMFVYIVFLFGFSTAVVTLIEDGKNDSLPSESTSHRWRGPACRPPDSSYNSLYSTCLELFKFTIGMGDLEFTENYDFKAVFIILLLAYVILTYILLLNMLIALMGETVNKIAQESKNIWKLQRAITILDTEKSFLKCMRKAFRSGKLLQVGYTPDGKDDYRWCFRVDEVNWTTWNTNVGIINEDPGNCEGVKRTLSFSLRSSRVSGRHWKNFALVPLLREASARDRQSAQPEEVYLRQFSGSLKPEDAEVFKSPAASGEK
NR4A1: Nuclear receptor subfamily 4 group A member 1 (NR4A1, Homo sapiens, UniProt P22736)
UniProt P22736, sequence (whole entry, looked up): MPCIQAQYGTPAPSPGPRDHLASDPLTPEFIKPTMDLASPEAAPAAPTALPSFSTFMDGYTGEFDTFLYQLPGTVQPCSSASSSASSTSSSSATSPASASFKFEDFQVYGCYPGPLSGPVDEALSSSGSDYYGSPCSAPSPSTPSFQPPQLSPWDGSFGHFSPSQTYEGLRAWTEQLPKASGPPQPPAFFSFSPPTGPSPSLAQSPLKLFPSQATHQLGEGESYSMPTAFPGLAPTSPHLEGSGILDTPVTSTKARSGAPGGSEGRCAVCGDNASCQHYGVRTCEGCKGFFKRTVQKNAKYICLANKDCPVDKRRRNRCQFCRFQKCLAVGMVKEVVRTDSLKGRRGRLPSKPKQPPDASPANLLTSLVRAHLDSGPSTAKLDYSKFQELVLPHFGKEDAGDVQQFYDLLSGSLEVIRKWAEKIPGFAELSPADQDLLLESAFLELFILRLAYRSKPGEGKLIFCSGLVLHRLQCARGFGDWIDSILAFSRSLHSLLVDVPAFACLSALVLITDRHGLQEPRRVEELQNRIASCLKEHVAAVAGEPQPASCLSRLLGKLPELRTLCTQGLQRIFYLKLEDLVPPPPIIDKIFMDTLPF
Tumor necrosis factor receptor superfamily member 9/Nectin-4: Tumor necrosis factor receptor superfamily member 9/Nectin-4 (Homo sapiens, UniProt Q07011+Q96NY8)
UniProt Q96NY8, sequence (whole entry, looked up): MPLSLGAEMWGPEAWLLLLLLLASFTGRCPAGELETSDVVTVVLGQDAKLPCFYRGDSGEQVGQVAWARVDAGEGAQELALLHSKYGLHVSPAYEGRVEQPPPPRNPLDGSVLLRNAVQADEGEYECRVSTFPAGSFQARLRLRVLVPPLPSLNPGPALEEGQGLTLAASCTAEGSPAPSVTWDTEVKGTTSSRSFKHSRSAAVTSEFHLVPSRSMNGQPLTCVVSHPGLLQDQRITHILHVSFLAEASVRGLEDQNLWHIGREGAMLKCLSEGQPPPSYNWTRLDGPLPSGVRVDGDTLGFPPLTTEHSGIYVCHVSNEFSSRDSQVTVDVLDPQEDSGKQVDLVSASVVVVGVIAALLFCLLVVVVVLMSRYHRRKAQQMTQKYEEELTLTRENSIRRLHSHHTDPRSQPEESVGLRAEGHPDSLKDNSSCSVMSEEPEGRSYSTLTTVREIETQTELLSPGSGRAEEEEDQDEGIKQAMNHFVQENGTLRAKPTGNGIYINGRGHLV
UniProt Q07011, sequence (whole entry, looked up): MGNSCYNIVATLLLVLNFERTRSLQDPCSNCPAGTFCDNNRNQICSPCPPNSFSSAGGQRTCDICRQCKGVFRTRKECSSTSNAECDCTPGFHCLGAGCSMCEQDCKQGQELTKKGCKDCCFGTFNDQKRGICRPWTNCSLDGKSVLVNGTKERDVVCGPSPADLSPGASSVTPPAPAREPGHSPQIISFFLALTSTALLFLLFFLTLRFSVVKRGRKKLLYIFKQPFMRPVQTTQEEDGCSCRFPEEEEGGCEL
T1: ssDNA, aptamer; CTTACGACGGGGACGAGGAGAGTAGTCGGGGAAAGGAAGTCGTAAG
UniProt Q9NYV8, sequence (whole entry, unmodified, looked up): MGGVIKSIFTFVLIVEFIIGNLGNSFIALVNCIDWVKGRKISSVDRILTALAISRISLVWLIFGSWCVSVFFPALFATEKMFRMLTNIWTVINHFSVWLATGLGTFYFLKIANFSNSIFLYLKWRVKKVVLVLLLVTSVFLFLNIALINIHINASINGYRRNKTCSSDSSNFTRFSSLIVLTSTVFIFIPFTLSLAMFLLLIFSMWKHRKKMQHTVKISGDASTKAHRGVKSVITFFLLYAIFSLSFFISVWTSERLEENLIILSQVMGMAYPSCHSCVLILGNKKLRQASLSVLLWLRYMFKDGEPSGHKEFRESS
UniProt Q16774, sequence (whole entry, unmodified, looked up): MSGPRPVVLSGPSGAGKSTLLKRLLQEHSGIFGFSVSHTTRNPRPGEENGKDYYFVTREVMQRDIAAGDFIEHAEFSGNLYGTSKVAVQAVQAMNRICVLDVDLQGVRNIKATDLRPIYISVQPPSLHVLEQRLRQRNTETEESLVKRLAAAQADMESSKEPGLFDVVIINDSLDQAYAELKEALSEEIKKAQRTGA
UniProt O75762, sequence (whole entry, looked up): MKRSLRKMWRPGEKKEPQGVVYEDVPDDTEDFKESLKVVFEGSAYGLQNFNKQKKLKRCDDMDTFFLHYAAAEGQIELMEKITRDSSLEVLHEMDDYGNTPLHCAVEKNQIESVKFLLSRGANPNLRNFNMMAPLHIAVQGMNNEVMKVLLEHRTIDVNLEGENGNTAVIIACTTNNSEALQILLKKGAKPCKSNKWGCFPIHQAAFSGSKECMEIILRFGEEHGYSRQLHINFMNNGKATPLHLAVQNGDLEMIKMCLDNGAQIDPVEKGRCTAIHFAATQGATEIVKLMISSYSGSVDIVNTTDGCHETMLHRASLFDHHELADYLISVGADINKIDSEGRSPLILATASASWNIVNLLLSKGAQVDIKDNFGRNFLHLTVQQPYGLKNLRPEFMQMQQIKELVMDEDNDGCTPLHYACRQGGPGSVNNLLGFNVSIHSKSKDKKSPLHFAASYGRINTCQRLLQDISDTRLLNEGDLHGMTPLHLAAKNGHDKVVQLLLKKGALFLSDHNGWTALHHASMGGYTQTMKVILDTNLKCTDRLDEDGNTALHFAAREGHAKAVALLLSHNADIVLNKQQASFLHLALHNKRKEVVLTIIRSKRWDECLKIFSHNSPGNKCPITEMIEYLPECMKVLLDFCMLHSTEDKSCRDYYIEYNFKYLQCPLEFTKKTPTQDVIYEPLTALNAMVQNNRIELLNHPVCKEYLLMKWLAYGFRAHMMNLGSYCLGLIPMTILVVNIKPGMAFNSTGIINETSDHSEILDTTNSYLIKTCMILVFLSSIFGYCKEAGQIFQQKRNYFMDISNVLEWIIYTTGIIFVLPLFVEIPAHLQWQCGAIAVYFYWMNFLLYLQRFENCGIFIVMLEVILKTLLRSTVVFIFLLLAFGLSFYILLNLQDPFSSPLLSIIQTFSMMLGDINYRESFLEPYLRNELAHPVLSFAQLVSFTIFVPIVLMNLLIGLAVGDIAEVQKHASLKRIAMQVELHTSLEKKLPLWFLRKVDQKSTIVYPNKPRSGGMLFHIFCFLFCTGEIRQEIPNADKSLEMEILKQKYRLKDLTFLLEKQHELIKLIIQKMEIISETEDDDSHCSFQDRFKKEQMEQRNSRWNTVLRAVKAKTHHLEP
UniProt P51575, sequence (whole entry, unmodified, looked up): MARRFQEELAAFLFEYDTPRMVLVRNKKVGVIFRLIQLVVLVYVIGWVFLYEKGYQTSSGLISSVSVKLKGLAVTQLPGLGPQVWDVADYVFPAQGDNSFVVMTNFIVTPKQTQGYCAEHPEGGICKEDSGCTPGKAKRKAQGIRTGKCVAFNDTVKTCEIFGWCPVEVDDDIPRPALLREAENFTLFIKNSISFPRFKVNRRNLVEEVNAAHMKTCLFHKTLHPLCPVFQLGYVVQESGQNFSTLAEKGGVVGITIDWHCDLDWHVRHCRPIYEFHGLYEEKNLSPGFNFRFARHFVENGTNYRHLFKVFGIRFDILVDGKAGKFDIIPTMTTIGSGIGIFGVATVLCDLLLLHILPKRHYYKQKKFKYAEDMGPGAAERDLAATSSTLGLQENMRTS
UniProt P41595, sequence (whole entry, looked up): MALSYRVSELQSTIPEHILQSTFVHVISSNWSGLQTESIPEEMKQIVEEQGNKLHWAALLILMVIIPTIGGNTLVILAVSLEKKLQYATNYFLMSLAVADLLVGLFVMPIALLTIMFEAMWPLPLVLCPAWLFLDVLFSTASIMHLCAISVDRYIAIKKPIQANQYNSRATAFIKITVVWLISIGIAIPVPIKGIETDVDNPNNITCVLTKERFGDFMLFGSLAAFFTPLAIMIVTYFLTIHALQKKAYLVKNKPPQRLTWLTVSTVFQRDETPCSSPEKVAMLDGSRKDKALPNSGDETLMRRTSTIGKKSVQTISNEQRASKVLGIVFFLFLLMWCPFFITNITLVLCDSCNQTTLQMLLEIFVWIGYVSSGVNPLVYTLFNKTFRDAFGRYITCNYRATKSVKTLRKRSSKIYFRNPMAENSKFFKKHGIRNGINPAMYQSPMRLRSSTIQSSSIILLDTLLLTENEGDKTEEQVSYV
UniProt P40337, sequence (whole entry, unmodified, looked up): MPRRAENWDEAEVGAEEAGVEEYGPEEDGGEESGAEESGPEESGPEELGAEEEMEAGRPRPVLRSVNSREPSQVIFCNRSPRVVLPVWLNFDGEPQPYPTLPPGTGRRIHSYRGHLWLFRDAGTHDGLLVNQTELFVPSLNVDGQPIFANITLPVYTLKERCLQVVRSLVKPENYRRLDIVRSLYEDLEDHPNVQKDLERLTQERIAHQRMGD

The calcium response of COc1cc(CNC(=O)CCCC/C=C/C(C)C)ccc1O is reported as 36.2 a.u. and 25 a.u. and 30.8 a.u. and 26.1 a.u. (TRPV1; channel activation, FLIPR calcium; HEK293T; 2.22 µM; higher = more activation).
CC(C)[C@@H](Nc1nc(I)nc2c1ncn2[C@H]1[C@H](O)[C@H](O)[C@]2(C#N)C[C@H]12)C1CC1 gave an affinity gain of 5.3 fold and 5 fold (HTR2B (Homo sapiens, UniProt P41595); radioligand binding; added: [3H]LSD; reference: 4′-cyano over 4′-CH2OH analogue).
Cn1nc(Nc2ccc3c(c2)CN(C2CCC(=O)NC2=O)C3=O)c2ccccc21 (centres unmarked): “degradation rate constant” 1.9 h⁻¹ (Cereblon/Casein kinase I alpha (CSNK1A1/CRBN, Homo sapiens, UniProt P48729+Q96SW2); degrader, live-cell HiBiT kinetic; HEK293 LgBiT; 10 µM).
O=c1nc(SCc2cc(F)cc(C(F)(F)F)c2)nc(SCc2ccc3sccc3c2)[nH]1: “ATP hydrolysis rate” 1.2 µM/min and 1.37 µM/min (TOP2A (Homo sapiens, UniProt P11388); ATPase activity; 1.95 µM, added: ATP 0.1 mM).
Oc1ccccc1-c1n[nH]cc1-c1ccnc2ccccc12 — result for “log2 fold change”: 0.33 (Serine/threonine-protein kinase CST20 (CST20, Candida albicans, UniProt P0CY24); kinase binding, MIB/MS competition; Candida albicans lysate; 1 µM; reference: DMSO, negative = stronger binding).
O=[N+]([O-])c1cc(C(F)(F)F)ccc1NCc1ccco1 has a ΔH of -7.24 ± 0.14 kcal/mol (Endothelial PAS domain-containing protein 1, PAS-B domain (EPAS1, Homo sapiens, UniProt Q99814, N288A); binding, ITC, reverse mode).
The activation of CCN1CCN(c2cc(N3CCN(CC)CC3)nc(NCCNc3ccnc4cc(Cl)ccc34)n2)CC1 is reported as 1.18 ± 0.15 fold (NR4A1; reporter gene, Gal4 hybrid reporter; 10 µM; reference: vehicle).
With CCC1(O)CCCN(C(=O)c2ccc(-c3ccc(F)c(NC(=O)CCl)c3)cc2)C1 (centres unmarked) the protein adduct was 7.5% (DNA dC->dU-editing enzyme APOBEC-3A (Homo sapiens, UniProt P31941); covalent modifier, intact protein mass spectrometry, item: adduct +26691 Da; 500 µM, 1 h, 20-fold molar excess).
The Kd of Nc1ncnc2c1ncn2[C@@H]1O[C@H](COP(=O)(O)OP(=O)(O)O)[C@@H](O)[C@H]1O is reported as 15.8 µM (T1, ssDNA, aptamer; ITC).
The fluorescence increase of O=C(Nc1ccccc1OS(=O)(=O)c1ccc(F)cc1)c1ccc2ncccc2c1 is reported as 70.6 ± 2.05% (P2X purinoceptor 2 (P2RX2, Homo sapiens, UniProt Q9UBL9); calcium mobilization; MCF7 stably transfected; 100 µM, added: ATP 100 µM).
Under “V∞/Vmax ratio (b)”, OC[C@H]1OC(O)[C@H](O)[C@@H](O)[C@@H]1O (some centres unmarked) is recorded as 0.52 ± 0.01 (Hexokinase-3 (HK3, Homo sapiens, UniProt P52790, D264A/R265A); substrate inhibition; mutant D264A/R265A, partial substrate inhibition model, added: ATP 20 mM).
Under “open time constant”, COc1cc(CNC(=O)CCCC/C=C/C(C)C)ccc1O is recorded as 318 ms (TRPV1; channel gating, single-channel inside-out patch; 100 nM, component 4 of four).
Clc1ccc(C(c2c[nH]c3ccccc23)c2c[nH]c3ccccc23)cc1 has an activation of 1.22 fold (NR4A1; reporter gene, Gal4 hybrid reporter; 10 µM; reference: vehicle).
With Nc1ncnc2c1ncn2[C@@H]1O[C@H](COP(=O)(O)CP(=O)(O)OP(=O)(O)O)[C@@H](O)[C@H]1O the specific binding was 144 CCPM and 180 CCPM (P2X purinoceptor 1 (P2RX1, Homo sapiens, UniProt P51575, R292A); saturation binding; HEK293; 79 nM).
NCCCC(=O)O — result for “normalised MST signal”: 0.0239 (SLC6A6 (Homo sapiens, UniProt P31641, G62A); binding, microscale thermophoresis; 30.5 nM, room temperature, added: 50 nM labelled protein; higher = more binding).
With CCO[C@H](COc1ccc(C(F)(F)F)cc1)CSc1ccc(OCC(=O)O)c(C)c1 the Emax was 90% (PPARD (Homo sapiens, UniProt Q03181); reporter gene, agonist, luciferase reporter; reference: maximal control activation).
For Cc1cc(-c2cccc(-n3cc(COC(=O)[C@]4(C)C=C(C(=O)OC(C)(C)C)C(=O)CC4)nn3)c2)c(C)c2c1CNCC2, the fraction bound was 0.207 (MAPK8 (Homo sapiens, UniProt P45983); D-peptide binding, inhibitor, FP peptide displacement; 50 µM; lower is stronger displacement).
The binding response of O=C(CCc1ccccc1)Nc1cc(-c2ccnc(N3CCC(O)CC3)c2)ccn1 is reported as 19.8 RU (NR4A1; SPR; 10.0 µM).
The potentiation of [Ca] is reported as 4.84 fold change and 1.51 fold change and 3.46 fold change and 2.91 fold change and 2.08 fold change (TRPA1 (Homo sapiens, UniProt O75762); ion current, two-electrode voltage clamp; Xenopus oocytes; concentration not given, +80 mV, added: extracellular Ca2+; reference: current before Ca2+ addition).
The ΔBRET of O=C(O)c1ccccc1Nc1cccc(C(F)(F)F)c1 is reported as -0.0123 and -0.00619 and 0.031 and -0.00455 and -0.0242 and 0.00424 and -0.00254 (TAS2R14 (Homo sapiens, UniProt Q9NYV8); G-protein dissociation, TRUPATH gustducin BRET; 3 µM, wild-type receptor, unit not given; reference: vehicle).
For CCNC(=O)/C=C/c1cccc(Br)c1, “remaining transport activity” read 0.738 (SLC6A19 (Homo sapiens, UniProt Q695T7); inhibitor, L-[14C]leucine uptake; CHO-BC cells; 0.3 µM, 6 min, unit not given, added: GPNA 3 mM, JPH203 3 µM; reference: uninhibited cells).
For [O-][S+]1CCCCS1 (centres unmarked), “SOD1 dimer fraction” read 100% (SOD1 (Homo sapiens, UniProt P00441, G94A); LC-MS; human whole blood; 10000 µM, 1 h, 37 °C).
C[C@H]1O[C@@H](O[C@H]2CC[C@@]3(C)[C@@H](CC[C@]4(C)[C@@H]3C=CC3=C5CC(C)(C)CC[C@]5(CO)[C@@H](O)C[C@]34C)[C@]2(C)CO)[C@H](O)[C@@H](O[C@@H]2O[C@H](CO)[C@@H](O)[C@H](O)[C@H]2O)[C@H]1O — result for “MST normalised fluorescence”: 884 a.u. (SIRT1 (Homo sapiens, UniProt Q96EB6); binding, microscale thermophoresis; 122 nM).
The reaction rate of Nc1nc2c(ncn2[C@@H]2O[C@H](COP(=O)(O)O)[C@@H](O)[C@H]2O)c(=O)[nH]1 is reported as -1.01 s⁻¹ and 0.797 s⁻¹ and 0.36 s⁻¹ (GUK1 (Homo sapiens, UniProt Q16774, S37P); enzyme activity, NADH-coupled; 15.62 µM).
CCCC[C@@H]1NC(=O)[C@H](Cc2ccc(O)cc2)NC(=O)[C@@H]2CCCN2C(=O)[C@H](CC(=O)O)NC(=O)[C@H](C)NC(=O)[C@H](Cc2ccccc2)NC(=O)[C@@H]2CSCCC(=O)N3CN(CN(C3)C(=O)CCSC[C@@H](C(=O)N[C@@H](CNC(=O)Cn3cc(CCC(=O)NCCC(=O)N(C)CC(=O)N(C)CC(=O)N(C)CC(=O)N(C)CC(=O)N(C)CC(=O)N(C)CC(=O)N(C)CC(=O)N(C)CC(=O)N(C)CC(=O)N(C)CC(=O)N[C@H]4CSCCC(=O)N5CN6CN(C5)C(=O)CCSC[C@H](NC(=O)[C@@H](CC(=O)O)NC(=O)[C@H](Cc5cccc7ccccc57)NC(=O)[C@@H]5CCCN5C4=O)C(=O)N[C@@H](CCSC)C(=O)N[C@@H](CCCCNC(=N)N)C(=O)N[C@@H](CC(=O)O)C(=O)N[C@@H](Cc4c[nH]c5ccccc45)C(=O)N[C@@H](CO)C(=O)N[C@@H]([C@@H](C)O)C(=O)N4CCC[C@H]4C(=O)N4C[C@H](O)C[C@H]4C(=O)N[C@@H](Cc4c[nH]c5ccccc45)C(=O)N[C@H](C(N)=O)CSCCC6=O)nn3)C(N)=O)NC1=O)C(=O)CCSC[C@H](NC(C)=O)C(=O)N[C@@H](CC(C)(C)C)C(=O)N1CCC[C@H]1C(=O)N[C@@H](CCC(=O)O)C(=O)N[C@H](C)C(=O)N1CCC[C@H]1C(=O)N[C@@H](Cc1ccc(O)cc1)C(=O)N2 has an Emax of 42 fold (Tumor necrosis factor receptor superfamily member 9/Nectin-4; reporter gene, agonist; HT-1376 coculture with reporter cells; reference: background).
With Nc1ccc(S(=O)(=O)Nc2nnc(Cc3ccc(Cl)c(Cl)c3)s2)cc1 the Kii was 905 ± 53 µM (Glutathione hydrolase 1 proenzyme, without transmembrane domain (Homo sapiens, UniProt P19440); GSH hydrolysis, uncompetitive inhibitor; 37 °C, binds gamma-glutamyl enzyme, added: GSH 5-20 µM).
For Cc1ccnc(OC[C@H]2CN(CC(=O)N3CCc4ccccc43)CCO2)c1, the inhibition was -29% (HTR5A (Homo sapiens, UniProt P47898); radioligand binding; concentration not given, added: [3H]LSD).
Under “nucleotide addition rate”, Nc1ncnc2c1ncn2[C@@H]1O[C@H](COP(=O)(O)OP(=O)(O)OP(=O)(O)O)[C@@H](O)[C@H]1O is recorded as 2.6 ± 1.2 s⁻¹ (DNA-directed RNA polymerase subunit beta' / DNA-directed RNA polymerase subunit beta (rpoC/rpoB, Escherichia coli, UniProt P0A8T7+P0A8V2); RNA extension, rapid quench-flow; Escherichia coli, elongation complex, 6-MI template; 200 µM, 25 °C, slow complex fraction).
CC(=O)N[C@H](C(=O)N1C[C@H](O)C[C@H]1C(=O)NCc1ccc(-c2scnc2C)cc1)C(C)(C)SCCCCCCNC(=O)C[C@@H]1N=C(c2ccc(Cl)cc2)c2c(sc(C)c2C)-n2c(C)nnc21 gave a ΔG of -9.12 ± 0.01 kcal/mol (VHL/BRD3, BD1; with Elongin B/C (Homo sapiens, UniProt P40337+Q15059); ternary complex binding, ITC; 25 °C, added: VHL-ElonginB-ElonginC titrated into compound:PROTAC:Brd3^BD1 complex).
CC1CCCN(C(=O)c2cc3ncccn3n2)C1 (centres unmarked) has a fold enrichment of 0.68 (ATP-dependent RNA helicase DDX1 (Homo sapiens, UniProt Q92499); binding, affinity selection mass spectrometry; reference: other proteins in batch).
N=C(N)NCCC[C@H](N)C(=O)O has a Ka of 9.49e+09 M⁻¹ and 2.48e+10 M⁻¹ and 1.24e+10 M⁻¹ and 1.5e+10 M⁻¹ (uncharacterized protein (Pelagibacter ubique, UniProt Q4FLC2); isothermal titration calorimetry; Candidatus Pelagibacter ubique; displacement titration, added: octopine competitor 1 mM).
O=C(CCCc1ccccc1)C(=O)NCCc1ccc(Oc2ccc(C(F)(F)F)cn2)cc1: “probe-enriched protein abundance” 444000 a.u. (Carboxylesterase 1F (Ces1f, Mus musculus, UniProt Q91WU0); inhibitor, item: CES1F; mouse, WAT cytosol proteome; 10 µM; reference: DMSO, lower = stronger inhibition).
With O=C(O)c1ccc(Nc2ncc3c(n2)-c2ccc(Cl)cc2C(c2c(F)cccc2F)=NC3)cc1 the remaining activity was 32% (human TrkA(h); kinase activity; 1 µM).
The reaction velocity of O=S(=O)(O)O is reported as 0.108 µM/s and 0.113 µM/s and 0.161 µM/s (GUK1 (Homo sapiens, UniProt Q16774); enzyme activity, NADH-coupled; 10 mM, added: ATP 4000 µM).
CCCC[C@@H]1NC(=O)[C@H](Cc2ccc(O)cc2)NC(=O)[C@@H]2CCCN2C(=O)[C@H](CCC(=O)O)NC(=O)[C@H](C)NC(=O)[C@H](Cc2ccccc2)NC(=O)[C@@H]2CSCCC(=O)N3CN(CN(C3)C(=O)CCSC[C@H](NC(C)=O)C(=O)N[C@@H](CC(C)(C)C)C(=O)N3CCC[C@H]3C(=O)N[C@@H](CCC(=O)O)C(=O)N[C@H](CCCCNC(=O)CCc3cn(CCOCCOCCOCCN(CCOCCOCCOCCC(=O)N[C@H]4CSCCC(=O)N5CN6CN(C5)C(=O)CCSC[C@H](NC(=O)[C@@H](CC(=O)O)NC(=O)[C@H](Cc5cccc7ccccc57)NC(=O)[C@@H]5CCCN5C4=O)C(=O)N[C@@H](CCSC)C(=O)N[C@@H](CCCCNC(=N)N)C(=O)N[C@@H](CC(=O)O)C(=O)N[C@@H](Cc4c[nH]c5ccccc45)C(=O)N[C@@H](CO)C(=O)N[C@@H]([C@@H](C)O)C(=O)N4CCC[C@H]4C(=O)N4C[C@H](O)C[C@H]4C(=O)N[C@@H](Cc4c[nH]c5ccccc45)C(=O)N[C@H](C(N)=O)CSCCC6=O)CCOCCOCCOCCn4cc(CCC(=O)NCCCC[C@H]5NC(=O)[C@H](CCC(=O)O)NC(=O)[C@@H]6CCCN6C(=O)[C@H](CC(C)(C)C)NC(=O)[C@@H](NC(C)=O)CSCCC(=O)N6CN7CN(C6)C(=O)CCSC[C@H](NC(=O)[C@H](Cc6ccc(O)cc6)NC(=O)[C@@H]6CCCN6C5=O)C(=O)N[C@@H](Cc5ccccc5)C(=O)N[C@@H](C)C(=O)N[C@@H](CCC(=O)O)C(=O)N5CCC[C@H]5C(=O)N[C@@H](Cc5ccc(O)cc5)C(=O)N[C@@H](CCCC)C(=O)N[C@H](C(N)=O)CSCCC7=O)nn4)nn3)C(=O)N3CCC[C@H]3C(=O)N[C@@H](Cc3ccc(O)cc3)C(=O)N2)C(=O)CCSC[C@@H](C(N)=O)NC1=O gave an Emax of 11 fold (Tumor necrosis factor receptor superfamily member 9/Nectin-4; reporter gene, agonist; HT-1376 coculture with reporter cells; reference: background).
